{"data": "Measurements from different studies", "note": "Each numbered part is a random draw from the data of one study; scales do not carry over between parts.", "chain of UniProt Q6P3R8 (whole entry, looked up)": "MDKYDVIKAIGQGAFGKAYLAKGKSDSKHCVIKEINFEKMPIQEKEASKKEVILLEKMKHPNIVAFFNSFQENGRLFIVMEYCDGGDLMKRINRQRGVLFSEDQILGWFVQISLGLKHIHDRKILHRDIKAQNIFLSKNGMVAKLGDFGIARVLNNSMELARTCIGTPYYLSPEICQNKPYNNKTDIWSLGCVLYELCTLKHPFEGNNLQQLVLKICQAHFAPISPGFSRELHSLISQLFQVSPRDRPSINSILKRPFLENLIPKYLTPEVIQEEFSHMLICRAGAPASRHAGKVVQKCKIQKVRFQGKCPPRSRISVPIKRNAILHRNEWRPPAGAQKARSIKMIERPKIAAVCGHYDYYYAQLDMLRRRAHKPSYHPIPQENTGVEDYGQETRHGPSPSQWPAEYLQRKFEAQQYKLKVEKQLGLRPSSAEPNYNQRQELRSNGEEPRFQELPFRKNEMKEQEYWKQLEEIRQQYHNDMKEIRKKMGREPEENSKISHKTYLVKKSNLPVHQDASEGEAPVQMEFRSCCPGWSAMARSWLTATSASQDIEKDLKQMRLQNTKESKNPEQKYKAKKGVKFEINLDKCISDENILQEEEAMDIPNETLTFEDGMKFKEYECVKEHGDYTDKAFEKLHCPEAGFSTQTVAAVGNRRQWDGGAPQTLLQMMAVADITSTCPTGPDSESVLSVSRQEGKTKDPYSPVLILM", "chain of UniProt Q96SB4 (whole entry, looked up)": "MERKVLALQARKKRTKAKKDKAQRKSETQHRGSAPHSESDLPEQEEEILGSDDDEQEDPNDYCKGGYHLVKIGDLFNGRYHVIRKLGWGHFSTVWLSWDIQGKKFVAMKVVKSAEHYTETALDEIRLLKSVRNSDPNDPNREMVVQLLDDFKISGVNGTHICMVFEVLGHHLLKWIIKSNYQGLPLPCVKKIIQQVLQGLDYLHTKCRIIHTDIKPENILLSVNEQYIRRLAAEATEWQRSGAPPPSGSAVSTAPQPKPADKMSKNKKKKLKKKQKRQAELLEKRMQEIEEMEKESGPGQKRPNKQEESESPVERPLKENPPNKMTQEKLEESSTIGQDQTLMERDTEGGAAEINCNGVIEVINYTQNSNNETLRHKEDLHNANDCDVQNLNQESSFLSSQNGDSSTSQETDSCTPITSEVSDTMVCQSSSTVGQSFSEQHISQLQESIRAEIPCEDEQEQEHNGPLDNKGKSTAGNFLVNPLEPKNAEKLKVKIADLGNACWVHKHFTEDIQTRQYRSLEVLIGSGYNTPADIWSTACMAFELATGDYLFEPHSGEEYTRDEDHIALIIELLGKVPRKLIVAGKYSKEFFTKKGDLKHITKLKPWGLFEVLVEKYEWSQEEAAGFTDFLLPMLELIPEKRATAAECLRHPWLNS", "chain of UniProt Q86UX6 (whole entry, looked up)": "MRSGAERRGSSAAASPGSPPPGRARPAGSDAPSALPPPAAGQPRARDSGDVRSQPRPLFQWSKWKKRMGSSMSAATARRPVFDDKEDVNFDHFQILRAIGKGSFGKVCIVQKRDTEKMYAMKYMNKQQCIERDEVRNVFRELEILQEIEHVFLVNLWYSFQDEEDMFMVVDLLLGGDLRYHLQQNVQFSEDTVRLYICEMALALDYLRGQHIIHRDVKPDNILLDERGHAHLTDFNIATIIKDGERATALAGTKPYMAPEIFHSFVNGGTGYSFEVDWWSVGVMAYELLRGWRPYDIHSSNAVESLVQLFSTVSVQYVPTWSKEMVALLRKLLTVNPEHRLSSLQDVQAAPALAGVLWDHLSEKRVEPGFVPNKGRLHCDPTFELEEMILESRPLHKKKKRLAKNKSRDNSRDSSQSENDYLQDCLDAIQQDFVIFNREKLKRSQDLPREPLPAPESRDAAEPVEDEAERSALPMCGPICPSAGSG", "chain of UniProt Q86YV6 (whole entry, looked up)": "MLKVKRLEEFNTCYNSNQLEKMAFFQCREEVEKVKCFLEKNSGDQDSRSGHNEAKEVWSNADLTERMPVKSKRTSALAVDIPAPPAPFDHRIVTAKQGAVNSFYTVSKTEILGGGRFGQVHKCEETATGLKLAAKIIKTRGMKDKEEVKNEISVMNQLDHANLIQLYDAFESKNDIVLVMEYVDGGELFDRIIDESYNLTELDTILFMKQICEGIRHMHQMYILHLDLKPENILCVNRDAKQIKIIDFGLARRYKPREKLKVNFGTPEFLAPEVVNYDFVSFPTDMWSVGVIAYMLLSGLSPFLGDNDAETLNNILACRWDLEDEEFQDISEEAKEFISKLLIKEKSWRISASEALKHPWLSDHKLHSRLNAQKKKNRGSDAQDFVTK", "chain of UniProt P29322 (whole entry, looked up)": "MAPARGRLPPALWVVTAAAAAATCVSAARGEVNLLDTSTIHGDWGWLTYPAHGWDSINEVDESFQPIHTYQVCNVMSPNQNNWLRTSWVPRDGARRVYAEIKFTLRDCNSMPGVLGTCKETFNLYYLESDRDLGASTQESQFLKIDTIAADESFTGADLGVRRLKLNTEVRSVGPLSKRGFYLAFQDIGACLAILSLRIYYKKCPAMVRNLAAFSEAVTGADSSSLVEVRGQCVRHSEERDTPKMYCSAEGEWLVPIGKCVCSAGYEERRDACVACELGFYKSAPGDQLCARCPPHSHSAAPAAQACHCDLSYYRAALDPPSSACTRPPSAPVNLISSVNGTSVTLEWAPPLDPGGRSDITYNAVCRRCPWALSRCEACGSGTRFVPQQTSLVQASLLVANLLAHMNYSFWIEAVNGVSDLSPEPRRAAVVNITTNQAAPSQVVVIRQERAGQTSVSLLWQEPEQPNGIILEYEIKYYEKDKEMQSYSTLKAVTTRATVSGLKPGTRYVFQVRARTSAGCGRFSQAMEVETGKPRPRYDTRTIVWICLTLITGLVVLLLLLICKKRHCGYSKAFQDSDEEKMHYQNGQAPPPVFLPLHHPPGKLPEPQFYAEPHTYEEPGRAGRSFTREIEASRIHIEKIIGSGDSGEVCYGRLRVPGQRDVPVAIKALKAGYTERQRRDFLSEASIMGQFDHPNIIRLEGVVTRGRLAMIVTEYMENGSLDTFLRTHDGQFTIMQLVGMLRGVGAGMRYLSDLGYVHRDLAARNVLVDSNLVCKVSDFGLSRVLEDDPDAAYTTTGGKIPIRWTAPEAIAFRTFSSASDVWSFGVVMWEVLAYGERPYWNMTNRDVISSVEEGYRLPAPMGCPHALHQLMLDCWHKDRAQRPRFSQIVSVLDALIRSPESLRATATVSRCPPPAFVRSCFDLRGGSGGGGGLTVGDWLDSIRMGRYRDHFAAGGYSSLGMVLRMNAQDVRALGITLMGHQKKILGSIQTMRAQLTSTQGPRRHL", "chain of UniProt Q09013 (whole entry, looked up)": "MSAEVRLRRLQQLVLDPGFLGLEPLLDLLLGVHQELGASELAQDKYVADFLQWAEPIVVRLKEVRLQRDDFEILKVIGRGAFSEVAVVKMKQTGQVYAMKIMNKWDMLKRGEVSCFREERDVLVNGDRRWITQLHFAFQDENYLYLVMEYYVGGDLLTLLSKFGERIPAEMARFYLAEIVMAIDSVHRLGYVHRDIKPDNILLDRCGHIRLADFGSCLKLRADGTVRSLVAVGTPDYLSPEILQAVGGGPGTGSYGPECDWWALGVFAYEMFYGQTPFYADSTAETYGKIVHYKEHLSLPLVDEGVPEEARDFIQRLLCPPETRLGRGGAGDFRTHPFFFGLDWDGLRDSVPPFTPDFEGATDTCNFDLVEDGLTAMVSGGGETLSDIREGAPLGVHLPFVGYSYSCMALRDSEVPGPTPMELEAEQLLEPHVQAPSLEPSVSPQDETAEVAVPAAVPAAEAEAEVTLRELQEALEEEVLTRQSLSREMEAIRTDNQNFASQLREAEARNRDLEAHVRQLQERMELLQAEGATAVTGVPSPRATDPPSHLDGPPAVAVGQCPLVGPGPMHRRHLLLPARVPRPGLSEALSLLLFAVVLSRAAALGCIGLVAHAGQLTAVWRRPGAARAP"}
{"data": "Study 1", "target": "TAR DNA-binding protein 43, full length, His tag (TARDBP, Homo sapiens, UniProt Q13148, residues 1-414)", "method": "RNA Bind-n-Seq", "form": "RNA", "matrix": "in vitro", "concentration": "20 nM", "setting": "6-mer, flanks averaged, single round", "added": "150 mM LiCl", "reference": "input library", "direction": "higher = stronger binding"}
{"Oligonucleotide": "CGCUAA", "6-mer enrichment (R)": 0.846}
{"Oligonucleotide": "GCUGUG", "6-mer enrichment (R)": 1.2}
{"Oligonucleotide": "AUGAUA", "6-mer enrichment (R)": 0.917}
{"Oligonucleotide": "CUAGGU", "6-mer enrichment (R)": 0.914}
{"Oligonucleotide": "CUUUGC", "6-mer enrichment (R)": 0.976}
{"Oligonucleotide": "GCCAGU", "6-mer enrichment (R)": 0.962}
{"Oligonucleotide": "GGCUGA", "6-mer enrichment (R)": 1.02}
{"Oligonucleotide": "ACUUUG", "6-mer enrichment (R)": 0.945}
{"data": "Study 2", "target": "His6 tag", "method": "AlphaScreen counter screen", "concentration": "concentration not given"}
{"SMILES": "Cc1cc2ncc(-c3ccccc3)nc2cc1C", "inhibition [%]": -31.1}
{"SMILES": "CC(C)NC[C@@H](C(=O)N1CCN(c2ncnc3c2[C@H](C)C[C@H]3O)CC1)c1ccc(Cl)cc1", "inhibition [%]": -0.8}
{"SMILES": "CNC(=O)c1ccccc1Sc1ccc2c(/C=C/c3ccccn3)n[nH]c2c1", "inhibition [%]": -9.12}
{"data": "Study 3", "SMILES": "O=C1NC(c2ccccn2)Sc2ccccc21 (stereo not drawn)", "read-out": "cell-free assay", "method": "competition with immobilised ligand", "concentration": "1 µM"}
{"target": "Ephrin type-A receptor 8 (EPHA8, Homo sapiens, UniProt P29322)", "remaining binding": "63%"}
{"target": "Mitogen-activated protein kinase kinase kinase 4 (MAP3K4, Homo sapiens, UniProt Q9Y6R4)", "remaining binding": "100%"}
{"target": "SRSF protein kinase 1 (SRPK1, Homo sapiens, UniProt Q96SB4)", "remaining binding": "73%"}
{"target": "Serine/threonine-protein kinase TAO3 (TAOK3, Homo sapiens, UniProt Q9H2K8)", "remaining binding": "77%"}
{"target": "Serine/threonine-protein kinase 32C (STK32C, Homo sapiens, UniProt Q86UX6)", "remaining binding": "88%"}
{"target": "Serine/threonine-protein kinase MRCK beta (CDC42BPB, Homo sapiens, UniProt Q9Y5S2)", "remaining binding": "100%"}
{"target": "Serine/threonine-protein kinase Nek5 (NEK5, Homo sapiens, UniProt Q6P3R8)", "remaining binding": "72%"}
{"target": "Myosin light chain kinase family member 4 (MYLK4, Homo sapiens, UniProt Q86YV6)", "remaining binding": "90%"}
{"target": "Myotonin-protein kinase (DMPK, Homo sapiens, UniProt Q09013)", "remaining binding": "100%"}
{"target": "Fibroblast growth factor receptor 1 (FGFR1, Homo sapiens, UniProt P11362)", "remaining binding": "85%"}
{"target": "MAP/microtubule affinity-regulating kinase 4 (MARK4, Homo sapiens, UniProt Q96L34)", "remaining binding": "100%"}
{"target": "Receptor-type tyrosine-protein kinase FLT3, autoinhibited (FLT3, Homo sapiens, UniProt P36888)", "remaining binding": "92%"}
{"target": "Epidermal growth factor receptor (EGFR, Homo sapiens, UniProt P00533, del746-750)", "remaining binding": "100%"}
{"data": "Study 4", "cell line": "Huh-7", "concentration": "10 µM", "time": "24 h"}
{"Compound": "CC1(C)O[C@@H]2C[C@H]3[C@@H]4C[C@H](F)C5=CC(=O)CC[C@]5(C)[C@H]4[C@@H](O)C[C@]3(C)[C@]2(C(=O)CO)O1", "viability [%]": 99.8}
{"Compound": "Cn1cc[nH]c1=S", "viability [%]": 96.3}
{"Compound": "Cc1ccc(C(=O)Nc2ccc(S(=O)(=O)O)c3cc(S(=O)(=O)O)cc(S(=O)(=O)O)c23)cc1NC(=O)c1cccc(NC(=O)Nc2cccc(C(=O)Nc3cc(C(=O)Nc4ccc(S(=O)(=O)O)c5cc(S(=O)(=O)O)cc(S(=O)(=O)O)c45)ccc3C)c2)c1", "viability [%]": 102}
{"Compound": "Cc1c(N(C)CS(=O)(=O)O)c(=O)n(-c2ccccc2)n1C", "viability [%]": 100}
{"Compound": "CCN(CC)CCNC(=O)c1ccc(NC(C)=O)cc1", "viability [%]": 98}
{"Compound": "CCn1cc(C(=O)O)c(=O)c2cc(F)c(N3CCNC(C)C3)c(F)c21 (stereo not drawn)", "viability [%]": 93.6}
